Measured values from different studies.
Compare with care: the assays were run in different laboratories. ≈ marks a conversion by molar mass, not a printed value.
Organism: Bacillus subtilis

| Structure (SMILES) | test | test system | conditions | MIC |
| --- | --- | --- | --- | --- |
| CC[C@H](C)[C@H](N)C1=N[C@H](C(=O)N[C@@H](CC(C)C)C(=O)N[C@H](CCC(=O)O)C(=O)N[C@H](C(=O)N[C@H]2CCCCNC(=O)[C@H](CC(N)=O)NC(=O)[C@@H](CC(=O)O)NC(=O)[C@H](Cc3c[nH]cn3)NC(=O)[C@@H](Cc3ccccc3)NC(=O)[C@H]([C@@H](C)CC)NC(=O)[C@@H](CCCN)NC2=O)[C@@H](C)CC)CS1 | – | 168 | 18 h, 37 °C, 0.3 mM ZnSO4 LB | 32 µg/mL (≈ 22.5 µM) |
| CN[C@H](CC(C)C)C(=O)N[C@H]1C(=O)N[C@@H](CC(N)=O)C(=O)N[C@H]2C(=O)N[C@H]3C(=O)N[C@H](C(=O)N[C@H](C(=O)N[C@@H](CCCNC(=N)N)C(N)=O)c4cc(O)cc(O)c4-c4cc3ccc4O)[C@H](O)c3ccc(c(Cl)c3)Oc3cc2cc(c3O[C@@H]2O[C@H](CO)[C@@H](O)[C@H](O)[C@H]2O[C@H]2C[C@](C)(NCc3ccc(OCc4cn(CC(=O)N[C@H](C(=O)N[C@@H](CCN)C(=O)N[C@H]5CCNC(=O)[C@H]([C@@H](C)O)NC(=O)[C@H](CCN)NC(=O)[C@H](CCN)NC(=O)[C@H](CC(C)C)NC(=O)[C@@H](CC(C)C)NC(=O)[C@H](CCN)NC5=O)[C@@H](C)O)nn4)c(OC)c3)[C@H](O)[C@H](C)O2)Oc2ccc(cc2Cl)[C@H]1O | broth microdilution | 168, cation-adjusted Mueller-Hinton broth | 20 to 24 h, 37 °C, 0.002% polysorbate 80 | ≤ 0.008 µg/mL |
| CC[C@H]1OC(=O)[C@H](C)[C@@H](OC(=O)Cc2cccc([N+](=O)[O-])c2)[C@H](C)[C@@H](O[C@@H]2O[C@H](C)C[C@H](N(C)C)[C@H]2O)[C@](C)(OC)C[C@@H](C)C(=O)[C@H](C)[C@@H](O)[C@]1(C)O | microbial growth | DSM402 | – | 0.3 µg/mL (≈ 0.398 µM) |
| CCOc1c(NC(=O)c2ccc(NC(=O)c3ccc(NC(=O)[C@H](Cc4c[nH]nn4)NC(=O)c4ccc(NC(=O)/C(C)=C/c5ccc(O)cc5)cc4)cc3)c(OC)c2O)ccc(C(=O)O)c1O | broth microdilution | DSM 10 | – | 0.5 µg/mL (≈ 0.556 µM) |
| CN[C@H](CC(C)C)C(=O)N[C@H]1C(=O)N[C@@H](CC(N)=O)C(=O)N[C@H]2C(=O)N[C@H]3C(=O)N[C@H](C(=O)N[C@H](C(=O)NCc4cn(CCCCC(=O)N[C@H](C(=O)N[C@@H](CCN)C(=O)N[C@H]5CCNC(=O)[C@H]([C@@H](C)O)NC(=O)[C@H](CCN)NC(=O)[C@H](CCN)NC(=O)[C@H](CC(C)C)NC(=O)[C@@H](CC(C)C)NC(=O)[C@H](CCN)NC5=O)[C@@H](C)O)nn4)c4cc(O)cc(O)c4-c4cc3ccc4O)[C@H](O)c3ccc(c(Cl)c3)Oc3cc2cc(c3O[C@@H]2O[C@H](CO)[C@@H](O)[C@H](O)[C@H]2O[C@H]2C[C@](C)(N)[C@H](O)[C@H](C)O2)Oc2ccc(cc2Cl)[C@H]1O | broth microdilution | 168, cation-adjusted Mueller-Hinton broth | 20 to 24 h, 37 °C, 0.002% polysorbate 80 | 0.25 µg/mL (≈ 0.0984 µM) |
| COc1nc(C(=O)O)ccc1NC(=O)c1ccc(NC(=O)c2ccc(NC(=O)[C@H](Cc3c[nH]nn3)NC(=O)c3ccc(NC(=O)/C(C)=C/c4ccc(O)cc4)cc3)cc2)c(OC)c1O | broth microdilution | DSM 10 | – | 4 µg/mL (≈ 4.6 µM) |
| CC[C@H]1OC(=O)[C@H](C)[C@@H](OC(=O)c2ccc([N+](=O)[O-])cc2)[C@H](C)[C@@H](O[C@@H]2O[C@H](C)C[C@H](N(C)C)[C@H]2O)[C@](C)(OC)C[C@@H](C)C(=O)[C@H](C)[C@@H](O)[C@]1(C)O | microbial growth | DSM402 | – | 16 µg/mL (≈ 21.7 µM) |
| CN[C@H](CC(C)C)C(=O)N[C@H]1C(=O)N[C@@H](CC(N)=O)C(=O)N[C@H]2C(=O)N[C@H]3C(=O)N[C@H](C(=O)N[C@H](C(=O)NCC(N)=O)c4cc(O)cc(O)c4-c4cc3ccc4O)[C@H](O)c3ccc(c(Cl)c3)Oc3cc2cc(c3O[C@@H]2O[C@H](CO)[C@@H](O)[C@H](O)[C@H]2O[C@H]2C[C@](C)(NCc3ccc(OCc4cn(CC(=O)N[C@H](C(=O)N[C@@H](CCN)C(=O)N[C@H]5CCNC(=O)[C@H]([C@@H](C)O)NC(=O)[C@H](CCN)NC(=O)[C@H](CCN)NC(=O)[C@H](CC(C)C)NC(=O)[C@@H](CC(C)C)NC(=O)[C@H](CCN)NC5=O)[C@@H](C)O)nn4)c(OC)c3)[C@H](O)[C@H](C)O2)Oc2ccc(cc2Cl)[C@H]1O | broth microdilution | 168, cation-adjusted Mueller-Hinton broth | 20 to 24 h, 37 °C, 0.002% polysorbate 80 | ≤ 0.008 µg/mL |
| CC[C@H]1OC(=O)[C@H](C)[C@@H](OC(=O)Cc2c(F)cccc2F)[C@H](C)[C@@H](O[C@@H]2O[C@H](C)C[C@H](N(C)C)[C@H]2O)[C@](C)(OC)C[C@@H](C)C(=O)[C@H](C)[C@@H](O)[C@]1(C)O | microbial growth | DSM402 | – | 1 µg/mL (≈ 1.34 µM) |
| COc1nc(C(=O)Nc2ccc(C(=O)O)c(O)c2OC)ccc1NC(=O)c1ccc(NC(=O)[C@H](Cc2c[nH]nn2)NC(=O)c2ccc(NC(=O)/C(C)=C/c3ccc(O)cc3)cc2)cc1 | broth microdilution | DSM 10 | – | 0.5 µg/mL (≈ 0.575 µM) |

For quick reference, copied from above:
| Structure (SMILES) | test | test system | conditions | MIC |
| --- | --- | --- | --- | --- |
| CC[C@H]1OC(=O)[C@H](C)[C@@H](OC(=O)Cc2c(F)cccc2F)[C@H](C)[C@@H](O[C@@H]2O[C@H](C)C[C@H](N(C)C)[C@H]2O)[C@](C)(OC)C[C@@H](C)C(=O)[C@H](C)[C@@H](O)[C@]1(C)O | microbial growth | DSM402 | – | 1 µg/mL (≈ 1.34 µM) |
